Experimental data collected from several papers.
Each line is one published result; not all experiments were run side by side. ± marks the error that the study gave.
GLP1R: Glucagon-like peptide 1 receptor (GLP1R, Homo sapiens, UniProt P43220)
UniProt Q96GG9, sequence (whole entry, looked up): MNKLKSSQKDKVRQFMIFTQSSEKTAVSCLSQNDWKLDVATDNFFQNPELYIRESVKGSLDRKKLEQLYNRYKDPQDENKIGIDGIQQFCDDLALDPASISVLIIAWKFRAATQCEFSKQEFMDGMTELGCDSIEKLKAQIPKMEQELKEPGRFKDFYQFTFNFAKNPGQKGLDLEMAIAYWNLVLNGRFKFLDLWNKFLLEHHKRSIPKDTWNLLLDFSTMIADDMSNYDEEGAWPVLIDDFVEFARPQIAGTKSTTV
UniProt Q14790, sequence (whole entry, looked up): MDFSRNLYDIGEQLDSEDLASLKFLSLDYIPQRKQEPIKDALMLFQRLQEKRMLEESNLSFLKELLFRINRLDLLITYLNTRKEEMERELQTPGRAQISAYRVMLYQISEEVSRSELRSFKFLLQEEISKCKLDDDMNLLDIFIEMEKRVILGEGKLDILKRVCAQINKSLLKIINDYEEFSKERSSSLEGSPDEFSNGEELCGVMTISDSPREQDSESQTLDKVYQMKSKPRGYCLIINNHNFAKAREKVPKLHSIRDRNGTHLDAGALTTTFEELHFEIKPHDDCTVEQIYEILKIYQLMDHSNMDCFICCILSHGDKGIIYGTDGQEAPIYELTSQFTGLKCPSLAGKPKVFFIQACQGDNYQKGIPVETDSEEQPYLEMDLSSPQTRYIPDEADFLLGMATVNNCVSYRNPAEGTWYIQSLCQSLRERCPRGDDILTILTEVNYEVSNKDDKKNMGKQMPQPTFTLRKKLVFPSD
UniProt P48047, sequence (whole entry, looked up): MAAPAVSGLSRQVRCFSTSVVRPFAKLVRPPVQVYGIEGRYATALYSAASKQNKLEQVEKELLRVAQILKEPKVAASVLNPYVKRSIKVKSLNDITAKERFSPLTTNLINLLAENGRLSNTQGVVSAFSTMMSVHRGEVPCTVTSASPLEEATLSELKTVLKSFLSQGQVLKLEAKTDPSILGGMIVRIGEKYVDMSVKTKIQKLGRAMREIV
UniProt Q9Y6A2, sequence (whole entry, looked up): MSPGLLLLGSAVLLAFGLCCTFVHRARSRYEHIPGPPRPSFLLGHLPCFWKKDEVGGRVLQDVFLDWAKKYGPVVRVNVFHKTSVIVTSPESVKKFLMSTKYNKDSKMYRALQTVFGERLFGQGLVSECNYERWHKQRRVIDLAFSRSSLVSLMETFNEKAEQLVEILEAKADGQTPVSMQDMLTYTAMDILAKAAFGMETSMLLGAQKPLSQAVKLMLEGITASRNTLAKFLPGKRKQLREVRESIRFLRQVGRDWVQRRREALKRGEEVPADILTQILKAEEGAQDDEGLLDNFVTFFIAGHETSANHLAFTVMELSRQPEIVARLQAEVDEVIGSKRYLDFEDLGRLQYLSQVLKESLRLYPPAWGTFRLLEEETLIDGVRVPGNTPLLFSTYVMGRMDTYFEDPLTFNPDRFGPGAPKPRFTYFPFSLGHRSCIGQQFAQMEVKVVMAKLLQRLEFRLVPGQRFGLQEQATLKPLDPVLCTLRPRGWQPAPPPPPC
UniProt Q8NET8, sequence (whole entry, unmodified, looked up): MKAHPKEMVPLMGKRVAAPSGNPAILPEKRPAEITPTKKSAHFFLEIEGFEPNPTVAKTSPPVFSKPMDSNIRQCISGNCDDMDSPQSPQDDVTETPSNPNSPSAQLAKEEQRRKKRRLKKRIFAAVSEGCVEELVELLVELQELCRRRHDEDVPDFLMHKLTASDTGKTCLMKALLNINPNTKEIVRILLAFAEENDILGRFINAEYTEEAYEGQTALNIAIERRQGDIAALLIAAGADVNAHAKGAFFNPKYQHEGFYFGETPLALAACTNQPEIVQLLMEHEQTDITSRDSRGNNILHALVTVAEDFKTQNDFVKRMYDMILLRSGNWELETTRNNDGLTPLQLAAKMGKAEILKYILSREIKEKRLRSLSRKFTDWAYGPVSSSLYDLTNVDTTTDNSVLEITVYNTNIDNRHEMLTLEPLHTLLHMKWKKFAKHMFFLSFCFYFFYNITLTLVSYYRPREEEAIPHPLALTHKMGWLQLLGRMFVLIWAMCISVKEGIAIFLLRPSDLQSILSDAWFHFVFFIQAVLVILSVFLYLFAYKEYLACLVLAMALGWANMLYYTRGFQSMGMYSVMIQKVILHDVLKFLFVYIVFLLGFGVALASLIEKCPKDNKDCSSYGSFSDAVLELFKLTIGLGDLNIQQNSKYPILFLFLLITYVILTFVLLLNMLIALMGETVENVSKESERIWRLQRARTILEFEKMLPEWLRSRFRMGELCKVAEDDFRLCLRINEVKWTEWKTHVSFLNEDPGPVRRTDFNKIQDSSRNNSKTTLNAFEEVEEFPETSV
UniProt P42684, sequence (whole entry, looked up): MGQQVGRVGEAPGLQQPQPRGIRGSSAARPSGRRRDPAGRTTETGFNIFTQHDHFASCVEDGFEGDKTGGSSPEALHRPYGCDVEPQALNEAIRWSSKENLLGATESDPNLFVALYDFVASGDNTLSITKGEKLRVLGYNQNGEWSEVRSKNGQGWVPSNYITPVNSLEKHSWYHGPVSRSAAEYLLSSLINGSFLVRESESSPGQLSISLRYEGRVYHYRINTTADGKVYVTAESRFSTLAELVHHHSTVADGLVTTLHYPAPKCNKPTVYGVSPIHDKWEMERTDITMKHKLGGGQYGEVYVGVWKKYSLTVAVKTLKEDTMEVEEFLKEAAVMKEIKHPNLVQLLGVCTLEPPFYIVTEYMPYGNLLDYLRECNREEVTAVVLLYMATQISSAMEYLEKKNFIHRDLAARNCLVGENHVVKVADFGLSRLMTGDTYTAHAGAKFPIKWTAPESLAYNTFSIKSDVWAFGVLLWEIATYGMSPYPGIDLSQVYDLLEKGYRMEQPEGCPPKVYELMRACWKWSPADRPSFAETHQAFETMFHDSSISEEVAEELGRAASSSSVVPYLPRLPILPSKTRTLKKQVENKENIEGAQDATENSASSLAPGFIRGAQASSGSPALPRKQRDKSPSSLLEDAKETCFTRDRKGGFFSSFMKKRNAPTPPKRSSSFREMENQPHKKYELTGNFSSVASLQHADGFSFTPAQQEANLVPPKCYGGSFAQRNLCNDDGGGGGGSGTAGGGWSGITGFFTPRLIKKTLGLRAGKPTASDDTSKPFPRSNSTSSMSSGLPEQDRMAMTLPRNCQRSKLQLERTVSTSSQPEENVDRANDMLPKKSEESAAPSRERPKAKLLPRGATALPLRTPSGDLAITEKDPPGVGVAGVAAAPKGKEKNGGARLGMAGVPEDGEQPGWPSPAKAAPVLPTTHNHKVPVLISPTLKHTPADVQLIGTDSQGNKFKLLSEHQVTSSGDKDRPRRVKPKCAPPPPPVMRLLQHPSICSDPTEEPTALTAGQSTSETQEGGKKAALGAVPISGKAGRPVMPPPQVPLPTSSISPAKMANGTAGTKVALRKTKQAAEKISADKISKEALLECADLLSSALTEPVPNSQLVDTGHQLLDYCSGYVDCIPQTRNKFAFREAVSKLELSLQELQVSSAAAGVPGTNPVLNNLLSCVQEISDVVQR

| Structure (SMILES) | tested on | assay | test system | conditions | quantity | result |
| --- | --- | --- | --- | --- | --- | --- |
| CC[C@H](C)[C@H](NC(=O)[C@H](Cc1ccccc1)NC(=O)[C@H](CCC(=O)O)NC(=O)[C@H](CCCNC(=N)N)NC(=O)[C@H](C)NC(=O)[C@H](C)NC(=O)[C@H](CCC(N)=O)NC(=O)[C@H](CCC(=O)O)NC(=O)[C@H](CCC(=O)O)NC(=O)[C@H](CC(C)C)NC(=O)[C@H](Cc1ccc(O)cc1)NC(=O)[C@H](CO)NC(=O)[C@H](CO)NC(=O)[C@@H](NC(=O)[C@H](CC(=O)O)NC(=O)[C@H](CO)NC(=O)[C@@H](NC(=O)[C@H](Cc1ccccc1)NC(=O)[C@@H](NC(=O)CNC(=O)[C@H](CCC(=O)O)NC(=O)[C@H](C)NC(=O)CCc1cnc[nH]1)[C@@H](C)O)[C@@H](C)O)C(C)C)C(=O)N[C@@H](C)C(=O)N[C@@H](Cc1c[nH]c2ccccc12)C(=O)N[C@@H](CC(C)C)C(=O)N[C@H](C(=O)N[C@@H](CCCCNC(=O)COCCOCCNC(=O)COCCOCCNC(=O)CC[C@H](NC(=O)CCCCCCCCCCCCCCCCC(=O)O)C(=O)O)C(=O)NCC(=O)N[C@@H](CCCNC(=N)N)C(=O)N[C@@H](CCCCNc1c(NCCCCCN(O)C(=O)CCC(=O)NCCCCCN(O)C(=O)CCC(=O)NCCCCCN(O)C(C)=O)c(=O)c1=O)C(=O)NCC(=O)NCC(=O)N[C@@H](CO)C(=O)N[C@@H](CCCCNc1c(NCCCCCN(O)C(=O)CCC(=O)NCCCCCN(O)C(=O)CCC(=O)NCCCCCN(O)C(C)=O)c(=O)c1=O)C(=O)NCC(=O)NCC(=O)N[C@@H](CO)C(=O)N[C@@H](CCCCNc1c(NCCCCCN(O)C(=O)CCC(=O)NCCCCCN(O)C(=O)CCC(=O)NCCCCCN(O)C(C)=O)c(=O)c1=O)C(=O)O)C(C)C | GLP1R | cAMP reporter gene, agonist, CRE luciferase | BHK | with Zr, 0% HSA | EC50 | 0.0056 nM |
| CC[C@H](C)[C@H](NC(=O)[C@H](Cc1ccc(OP(=O)(O)O)cc1)NC(=O)[C@H](CCC(=O)O)NC(=O)[C@H](Cc1c[nH]cn1)NC(=O)CNC(=O)[C@H](CC(=O)O)NC(=O)[C@H](CO)NC(=O)[C@H](CO)NC(=O)[C@@H](NC(=O)[C@H](CO)NC(=O)[C@H](CCC(=O)O)NC(=O)c1ccc2c(c1)C(=O)OC21c2ccc(N(C)C)cc2Oc2cc(N(C)C)ccc21)C(C)C)C(=O)N[C@@H](Cc1ccc(O)cc1)C(=O)N[C@H](C(=O)N[C@@H](CC(=O)O)C(=O)N1CCC[C@H]1C(=O)N[C@@H](CCSC)C(=O)N[C@@H](CCC(N)=O)C(=O)N[C@@H](CC(=O)O)C(=O)O)C(C)C | Tyrosine-protein kinase ABL2, SH2 domain (ABL2, Homo sapiens, UniProt P42684) | binding |  |  | Kd | 71 nM |
| C[C@H]1CN(c2n[nH]c3nc(N[C@H]4CC[C@H](NS(=O)(=O)CCC(F)(F)F)CC4)ncc23)CCO1 | ATP synthase peripheral stalk subunit OSCP, mitochondrial (Homo sapiens, UniProt P48047) | biochemical |  |  | IC50 | ≥ 20000 nM |
| CC[C@H](C)[C@H](NC(=O)[C@H](Cc1ccccc1)NC(=O)[C@H](CCC(=O)O)NC(=O)[C@H](CCCNC(=N)N)NC(=O)[C@H](C)NC(=O)[C@H](C)NC(=O)[C@H](CCC(N)=O)NC(=O)[C@H](CCC(=O)O)NC(=O)[C@H](CCC(=O)O)NC(=O)[C@H](CC(C)C)NC(=O)[C@H](Cc1ccc(O)cc1)NC(=O)[C@H](CO)NC(=O)[C@H](CO)NC(=O)[C@@H](NC(=O)[C@H](CC(=O)O)NC(=O)[C@H](CO)NC(=O)[C@@H](NC(=O)[C@H](Cc1ccccc1)NC(=O)[C@@H](NC(=O)CNC(=O)[C@H](CCC(=O)O)NC(=O)[C@H](C)NC(=O)CCc1cnc[nH]1)[C@@H](C)O)[C@@H](C)O)C(C)C)C(=O)N[C@@H](C)C(=O)N[C@@H](Cc1c[nH]c2ccccc12)C(=O)N[C@@H](CC(C)C)C(=O)N[C@H](C(=O)N[C@@H](CCCCNc1c(NCCCCCN(O)C(=O)CCC(=O)NCCCCCN(O)C(=O)CCC(=O)NCCCCCN(O)C(C)=O)c(=O)c1=O)C(=O)NCC(=O)N[C@@H](CCCNC(=N)N)C(=O)N[C@@H](CCCCNc1c(NCCCCCN(O)C(=O)CCC(=O)NCCCCCN(O)C(=O)CCC(=O)NCCCCCN(O)C(C)=O)c(=O)c1=O)C(=O)NCC(=O)NCC(=O)N[C@@H](CO)C(=O)N[C@@H](CCCCNC(=O)COCCOCCNC(=O)COCCOCCNC(=O)CC[C@H](NC(=O)CCCCCCCCCCCCCCCCC(=O)O)C(=O)O)C(=O)O)C(C)C | GLP1R | cAMP reporter gene, agonist, CRE luciferase | BHK | with Zr, 1% HSA | EC50 | 0.17 nM |
| O=C(c1cccnc1-c1ccncc1)N1CCC(O)(Cc2ccccc2)CC1 | CYP46A1 (Homo sapiens, UniProt Q9Y6A2) | enzyme occupancy, PET | healthy adults | PK/PD model | EC50 | 15.7 nM |
| Cc1ccc(-n2nc(C)c3c2NC(=O)[C@@H](NC(=O)c2cccc(C(F)(F)F)c2)[C@H]3c2ccc(F)cc2)cc1 | DCN1-like protein 1 (Homo sapiens, UniProt Q96GG9) |  |  |  | IC50 | > 15000 nM |
| CCCc1cc(O)c2c(c1)OC(C)(C)[C@@H]1CCC(C)=C[C@@H]21 | TRPV3 (Homo sapiens, UniProt Q8NET8, H426A) | calcium uptake, agonist, Fura-2 AM | HEK293S expressing H426A mutant |  | EC50 | 1410 ± 90 nM |
| COc1cc(Nc2ncc(F)c(Nc3ccc4c(n3)NC(=O)C(C)(C)O4)n2)cc(OC)c1OC | Caspase-8 (CASP8, Homo sapiens, UniProt Q14790) |  |  |  | IC50 | > 10000 nM |
| C[C@@H](O)[C@H](NC(=O)[C@@H]1CSSC[C@H](NC(=O)[C@@H](Cc2ccccc2)NC(=O)CN2CCN(CC(=O)[O-])CCN(CC(=O)[O-])CCN(CC(=O)[O-])CC2)C(=O)N[C@@H](Cc2ccc(O)cc2)C(=O)N[C@H](Cc2c[nH]c3ccccc23)C(=O)N[C@@H](CCCCN)C(=O)N[C@@H]([C@@H](C)O)C(=O)N1)C(=O)O.[177Lu+3] | MEC1 |  |  | 60 min, 37 °C | cell uptake | 1.34% |
| C[C@@H](O)[C@@H](CO)NC(=O)[C@@H](CCCNC(=N)N)NC(=O)[C@@H]1CCCN1C(=O)[C@@H]1CSSC[C@H](NC(=O)[C@H](Cc2ccccc2)NC(=O)CN2CCN(CC(=O)O)CCN(CC(=O)O)CCN(CC(=O)O)CC2)C(=O)N[C@@H](Cc2ccc(O)cc2)C(=O)N[C@@H](Cc2ccccc2)C(=O)N[C@@H](CCC(N)=O)C(=O)N[C@@H](CC(N)=O)C(=O)N1 [gallium-68 labelled] |  |  | human serum | 3 h, 37 °C | radiochemical purity | > 99% |
| CC[C@H](C)[C@H](NC(=O)[C@H](Cc1ccccc1)NC(=O)[C@H](CCC(=O)O)NC(=O)[C@H](CCCNC(=N)N)NC(=O)[C@H](C)NC(=O)[C@H](C)NC(=O)[C@H](CCC(N)=O)NC(=O)[C@H](CCCCNc1c(NCCCCCN(O)C(=O)CCC(=O)NCCCCCN(O)C(=O)CCC(=O)NCCCCCN(O)C(C)=O)c(=O)c1=O)NC(=O)[C@H](CCC(=O)O)NC(=O)[C@H](CC(C)C)NC(=O)[C@H](Cc1ccc(O)cc1)NC(=O)[C@H](CO)NC(=O)[C@H](CO)NC(=O)[C@@H](NC(=O)[C@H](CC(=O)O)NC(=O)[C@H](CO)NC(=O)[C@@H](NC(=O)[C@H](Cc1ccccc1)NC(=O)[C@@H](NC(=O)CNC(=O)[C@H](CCC(=O)O)NC(=O)[C@H](C)NC(=O)CCc1cnc[nH]1)[C@@H](C)O)[C@@H](C)O)C(C)C)C(=O)N[C@@H](C)C(=O)N[C@@H](Cc1c[nH]c2ccccc12)C(=O)N[C@@H](CC(C)C)C(=O)N[C@H](C(=O)N[C@@H](CCCNC(=N)N)C(=O)NCC(=O)N[C@@H](CCCNC(=N)N)C(=O)N[C@@H](CCCCNC(=O)COCCOCCNC(=O)COCCOCCNC(=O)CC[C@H](NC(=O)CCCCCCCCCCCCCCCCC(=O)O)C(=O)O)C(=O)NCC(=O)NCC(=O)N[C@@H](CO)C(=O)N[C@@H](CCCCNc1c(NCCCCCN(O)C(=O)CCC(=O)NCCCCCN(O)C(=O)CCC(=O)NCCCCCN(O)C(C)=O)c(=O)c1=O)C(=O)O)C(C)C | GLP1R | cAMP reporter gene, agonist, CRE luciferase | BHK | without Zr, 0% HSA | EC50 | 0.019 nM |
| Cc1cc(N)c2cc(NC(=O)Nc3ccc4nc(C)cc(N)c4c3)ccc2n1 | Genome polyprotein, NS5 methyltransferase domain (pol, Dengue virus type 3, UniProt Q6YMS4) |  |  |  | IC50 | 5400 nM |
| CC[C@H](C)[C@@H]([C@@H](CC(=O)N1CCC[C@H]1[C@H](OC)[C@@H](C)C(=O)N[C@H](C)[C@@H](O)c1ccccc1)OC)N(C)C(=O)[C@@H](NC(=O)[C@H](C(C)C)N(C)C(=O)OCc1ccc(NC(=O)[C@H](C)NC(=O)[C@@H](NC(=O)CCCCCN2C(=O)CC(SC[C@H](NC(=O)[C@H](CC(=O)O)NC(=O)[C@H](CCCNC(=N)N)NC(=O)[C@H](CC(=O)O)NC(=O)CCCCn3cc(CCCC(=O)Nc4nnc(S(N)(=O)=O)s4)nn3)C(=O)O)C2=O)C(C)C)cc1)C(C)C (stereo partly shown) |  |  | BALB/c nu/nu mice, SK-RC-52 xenograft | intravenous | maximal tolerated dose | 250 nmol/kg |
